Results gathered from unrelated publications.
Protocols differ between the studies behind these lines. ± marks the error that the study gave.

| Molecule | cell line | test | conditions | scale | EC50 [µM] |
| --- | --- | --- | --- | --- | --- |
| C[C@]12CCC(=O)C=C1CC[C@@H]1[C@@H]2[C@@H](O)C[C@@]2(C)[C@H]1CC[C@]2(O)C(=O)CO | Kasumi 1 | cell growth or viability, XTT |  |  | 0.32 |
| CC(=O)N(c1nc(COC(=O)c2ccsc2)cs1)c1ccccc1F | SK-BR-3 | cell growth or viability, MTT | 48 h |  | 10 |
| CCCCCCCCCCCCC/C=C/[C@@H](O)[C@@H](N)COP(=O)(O)O | human atrial myocytes | GIRK current, activator, whole-cell patch clamp |  | relative to: carbachol 20 µM response | 0.0019 |
| COc1cc2ccc(=O)oc2cc1O | Kasumi 1 | cell growth or viability, XTT |  |  | 13 |
| O=C1C(=Cc2ccc(Cl)cc2)CSc2ccccc21 | SK-BR-3 | cell growth or viability, MTT | 48 h |  | 10 |
| CCCCCC(O)C=CC1CCC(=O)N1CCCCCCC(=O)O (centres unmarked) | rat bone marrow cells | alkaline phosphatase activity, activator | 9 days |  | 0.0912 ± 0.0266 |
| CC[C@H](C)[C@H](NC(=O)[C@H](CCC(=O)O)NC(=O)[C@H](CC(=O)O)NC(=O)CNC(=O)[C@H](CC(C)C)NC(=O)[C@H](CCCNC(=N)N)NC(=O)[C@H](CCC(N)=O)NC(=O)[C@H](CC(C)C)NC(=O)[C@H](CO)NC(=O)[C@H](CCC(N)=O)NC(=O)[C@@H](NC(=O)[C@H](CC(C)C)NC(=O)[C@H](Cc1c[nH]c2ccccc12)NC(=O)[C@@H](NC(=O)[C@H](CCC(=O)O)NC(=O)[C@@H]1CCCN1C(=O)[C@H](CCCNC(=N)N)NC(C)=O)[C@@H](C)CC)[C@@H](C)O)C(=O)N[C@@H](CC(N)=O)C(=O)N[C@@H](C)C(=O)N[C@@H](Cc1ccc(O)cc1)C(=O)N[C@@H](Cc1ccc(O)cc1)C(=O)N[C@@H](C)C(=O)N[C@@H](CCCNC(=N)N)C(N)=O | MDA-MB-231, permeabilized | mitochondrial depolarization, BH3 profiling, JC-1 | 3 h |  | > 100 |
| CCCCC[C@H](O)/C=C/[C@H]1CCC(=O)[C@@H]1C/C=C\CCCC(=O)O | rat bone marrow cells | alkaline phosphatase activity, activator | 9 days |  | 0.0358 ± 0.0142 |
| CC(=O)c1ccc2c(c1)N(CCCN(C)C)c1ccccc1S2 | Kasumi 1 | cell growth or viability, XTT |  |  | 15.1 |
| N=C(NCCCCCN)c1ccc(OCCCCCOc2ccc(C(=N)NCCCCCN)cc2)cc1 | WM-115, S100B shRNA | cell growth, SYBR Green | low S100B |  | 33.3 ± 0.5 |
| C[C@]12CC[C@@H]3C(=CC=C4C[C@@H](O)CC[C@]43C)[C@@H]1CC[C@@H]2C(=O)CO | SK-MEL-188 | cell growth or viability, MTT | 48 h |  | 0.13 |
| CSCC[C@H](NC(=O)[C@H](CC(C)C)NC(=O)CNC(=O)[C@H](Cc1ccccc1)NC(=O)[C@H](Cc1ccccc1)NC(=O)[C@H](CCC(N)=O)NC(=O)[C@H](CCC(N)=O)NC(=O)[C@@H]1CCCN1C(=O)[C@H](CCCCN)NC(=O)[C@@H]1CCCN1C(=O)[C@@H](N)CCCNC(=N)N)C(N)=O | LAD2 human mast cells | CCL2 release, activator, refers to: CCL2 | 24 h, 37 °C |  | 1.8 |
| CNC(=O)c1cc(O[C@H]2CC[C@H](NC(=O)Nc3ccc(Cl)c(C(F)(F)F)c3)CC2)ccn1 | SK-BR-3 | cell growth or viability, MTT | 72 h |  | 7 |
| hexamidine | WM-115 melanoma, high S100B, scrambled shRNA | cell growth, SYBR Green proliferation |  |  | 245 ± 15.5 |
| C=CCNC1=C2C[C@@H](C)C[C@H](OC)[C@H](O)[C@@H](C)/C=C(\C)[C@H](OC(N)=O)[C@@H](OC)/C=C\C=C(/C)C(=O)NC(=CC1=O)C2=O | Kasumi 1 | cell growth or viability, XTT |  |  | 1.1 |
| CCCCC[C@H](O)/C=C/[C@H]1CC(F)(F)C(=O)N1CCCCCCC(=O)O | rat bone marrow cells | alkaline phosphatase activity, activator | 9 days |  | 0.0106 ± 0.0026 |
| O=C(CCCCCC(=O)NN=Cc1ccc(-c2ccccc2)cc1)NO | mouse primary forebrain neurons | histone H3K9 acetylation | 24 h |  | 0.18 |
| COc1cc2c(cc1OC)CN(CCCCn1ccc3ccccc31)CC2 | BxPC-3, AsPC-1, PANC-1, Panc02 | cytotoxicity | 48 h |  | > 100 |
| NCC(=O)O | rat dissociated neurons | chloride current, agonist, perforated patch clamp | pH 7.4, bicarbonate-free |  | 104 |
| CCCNCC(O)COc1ccccc1C(=O)CCc1ccccc1 (centres unmarked) | Kasumi 1 | cell growth or viability, XTT |  |  | 17.2 |
| CCC#CC[C@H](C)[C@H](O)/C=C/[C@H]1CC(F)(F)C(=O)N1CCCCCCC(=O)O | rat bone marrow cells | alkaline phosphatase activity, activator | 9 days, dried on plates 24 days |  | 0.0084 |
| C[C@H]1C[C@H]2[C@@H]3CCC4=CC(=O)C=C[C@]4(C)[C@@]3(F)[C@@H](O)C[C@]2(C)[C@@]1(O)C(=O)CO | Kasumi 1 | cell growth or viability, XTT |  |  | 0.028 |
| CC1(C)CC(C)(C)c2cc(N/C(S)=N/c3ccc([N+](=O)[O-])cc3)ccc2S1 | 786-0 | cell growth or viability | 48 h |  | 7.55 |

A few entries again:
| Molecule | cell line | test | conditions | scale | EC50 [µM] |
| --- | --- | --- | --- | --- | --- |
| COc1cc2c(cc1OC)CN(CCCCn1ccc3ccccc31)CC2 | BxPC-3, AsPC-1, PANC-1, Panc02 | cytotoxicity | 48 h |  | > 100 |
| O=C1C(=Cc2ccc(Cl)cc2)CSc2ccccc21 | SK-BR-3 | cell growth or viability, MTT | 48 h |  | 10 |
| CCCCC[C@H](O)/C=C/[C@H]1CCC(=O)[C@@H]1C/C=C\CCCC(=O)O | rat bone marrow cells | alkaline phosphatase activity, activator | 9 days |  | 0.0358 ± 0.0142 |
| O=C(CCCCCC(=O)NN=Cc1ccc(-c2ccccc2)cc1)NO | mouse primary forebrain neurons | histone H3K9 acetylation | 24 h |  | 0.18 |
